Measured values gathered from unrelated publications.
Protocols differ between the studies behind these lines. Several values in a cell are separate wells, animals, samples, runs or records.

CC(C)c1ccc(N(C)c2ccc3c(c2)OCC[C@H]3CNc2cnccc2C(=O)O)cc1 — IC50 (HCC1937; cell viability, CellTiter-Glo; 7 days): ≥ 10 µM
CC1(C)C[C@@H](Nc2cccc(-c3sc(C(=O)O)c(OCC(=O)O)c3Cl)c2)CCN1S(=O)(=O)Cc1cccc(NC(=O)CN2CCC(c3ccc4c(c3)oc(=O)n4C3CCC(=O)NC3=O)CC2)c1 (some centres unmarked) — fold change (B16-F10; HTRF, item: phospho-STAT1 Tyr701; 3.3 µM, together with: IFN-γ; relative to: DMSO): 5.08 and 5.53 and 5.42 and 5.25 and 5.51 and 5.36
CCOc1cncc(-c2ccc(NC(=O)C3(c4ccnc(NS(=O)(=O)C5CC5)n4)CCOCC3)nc2)n1 — IC50 (MOLM-1; cell proliferation, CellTiter-Glo; 72 h, myeloid haematological cancer): 0.057 µM
O=C(C[Se]C(=O)c1cc2ccccc2[nH]1)Nc1cccc(C(F)(F)F)c1 — mean growth percent (NCI60 breast subpanel; cell growth; 10 µM, 48 h, one-dose): -62%
Cc1ccc(-n2cc(CSc3nc4ccccc4n3Cc3cn(-c4ccc(C)cc4)nn3)nn2)cc1 — viability (Caco-2; MTT; 62.5 ppm): 16.1%
CC(C)(C)c1cc(-c2ccc3cc4ccccc4nc3n2)nc(-c2ccc3cc4ccccc4nc3n2)c1.[Cl-].[Cl-].[Ru+2].c1ccc2cc3nc4c5cccnc5c5ncccc5c4nc3cc2c1 — phototherapeutic index (B16-F10; visible light 100 J/cm2; relative to: dark EC50 over light EC50): 26
NC(=O)c1ccc(-c2ccccc2Cl)c2c3c([nH]c12)CCC(N)C3 (centres unmarked) — IC50 (A549/DDP, cisplatin-resistant; cell growth, CellTiter-Glo; 96 h): 0.0301 µM
CCN(C(=O)c1cc(F)ccc1Oc1nncnc1N1CCC2(C1)CN([C@H](CCCN(C)CCOC)C(C)C)C2)C(C)C — GI50 (MHH-ES-1; cell growth or viability; 72 h): > 10 µM
COc1ccc(NC(=O)c2c(Nc3ccccc3)sc(C(=O)N/N=C/c3ccc(OC)c(OC)c3)c2NC(C)=O)cc1 — viability (HCT-116; cell growth or viability, SRB; 10 µM, 48 h): 39.4%
[Cl-].[Cl-].[Ru+2].c1cc(-c2ccc3cccnc3n2)nc(-c2ccc3cccnc3n2)c1.c1ccc2cc3nc4c5cccnc5c5ncccc5c4nc3cc2c1 — EC50 (B16-F10; resazurin; together with: light 523 nm, 20 mW, 100 J/cm2): 27.4 µM
CCN(CC)CC(=O)Nc1cccc(-n2cc(-c3ccc4ccc(-c5cn(-c6cccc(NC(=O)CN(CC)CC)c6)nn5)cc4c3)nn2)c1 — fold regulation (RCC4; PCR angiogenesis array, item: ITGB3; 5 x IC50, 6 h, normoxia; relative to: untreated): -1.13
CO[C@@H]1[C@@H](OC(N)=O)[C@@H](O)[C@H](Oc2ccc3c(O)c(NC(=O)c4ccc(O)c(CC=C(C)C)c4)c(=O)oc3c2C)OC1(C)C — colony count (DLD-1 BRCA2-/-; 50 µM, replicate 2): 13
Cc1c(Cl)cccc1Nc1ccccc1C(=O)[Se]CC(=O)Nc1cccc(C(F)(F)F)c1 — mean growth percent (NCI60 breast subpanel; cell growth; 10 µM, 48 h, one-dose): -65.6%
COc1ccc(NC(=O)c2ccc3[nH]c(-c4ccc(N(C)C)cc4)nc3c2)cn1 — dead cell to confluence ratio (HCT116; IncuCyte; concentration not given, 4 h): 4.54 and 1.42 and 5.1
COC1=C2CC(C)CC(OC)C(O)C(C)C=C(C)C(OC(N)=O)C(OC)C=CC=C(C)C(=O)NC(=CC1=O)C2=O (centres unmarked) — log fold change (Rh30; ChIP-seq, item: H3K36me3 peak; concentration not given, SMPD4 intron chr2:130920200-130937399; relative to: untreated control): -0.502
Cn1ncc2cc(-c3cncc(Cl)c3N3CCC4(CCNC4=O)CC3)ccc21 — log2 fold change (LS174T; gene expression, microarray, item: PDK1 mRNA; concentration not given, 24 h; relative to: untreated cells): 2.16
CC(C)(C)c1cc(-c2ccc3cccnc3n2)nc(-c2ccc3cccnc3n2)c1.[Cl-].[Cl-].[Ru+2].c1ccc2cc3nc4c5cccnc5c5ncccc5c4nc3cc2c1 — phototherapeutic index (B16-F10; visible light 100 J/cm2; relative to: dark EC50 over light EC50): 13
CC1(C)CC[C@@]2(CO)C(=C3C=C[C@@H]4[C@@]5(C)CC[C@H](O)[C@@](C)(CO)[C@@H]5CC[C@@]4(C)[C@]3(C)C[C@@H]2O)C1 — protein level (HepG2, SIRT1 siRNA; Western blot, item: Deptor; concentration not given, high dose, unit not given, together with: ethanol; relative to: β-actin): 0.829 and 0.891 and 0.741
COC1CN([C@H]2CC[C@H]([C@@]3(C)Oc4c(Cl)cc(C(=O)NCc5c(SC)cc(C)[nH]c5=O)c(C)c4O3)CC2)C1 — GI50 (RT-4; cell growth or viability, ATP luminescence; 12 days): > 10 µM
O=C1c2c(O)cc(O)cc2-c2c(-c3ccc(O)cc3)oc3cc(O)cc1c23 — protein level ratio (LCC2 shControl cells; label-free MS proteomics, item: L1CAM; 10 µM; relative to: DMSO): 7.76
CN1CCCNC(=O)c2cccc(c2)C(=O)NCCCN(C)CCCNc2cccc3c2C(=O)c2cccc(c2C3=O)NCCC1 — log2 fold change (SAS; RNA-Seq, item: EBAG9 mRNA; 1 µM, 6 h; relative to: untreated cells): 0.554
COc1cc(N2CCN(C(=O)C3CCCN3)CC2)ccc1Nc1ncc(Cl)c(Nc2ccccc2P(C)(C)=O)n1 (centres unmarked) — cells in G1 phase (NCI-H3122; flow cytometry; 500 nM, 24 h): 86%
[BH3-][P+]1(c2ccccc2)CCCCC1 — early apoptotic cells (SW-620; annexin V/PI flow cytometry; IC50, 72 h): 5.1%
CNS(=O)(=O)Nc1nccc(Cc2c(C)c3ccc(Oc4ncccc4F)cc3oc2=O)c1F — IC50 (WILL-1; cell viability; 7 days): > 1 µM
Cc1ncsc1-c1ccc(C(C)NC(=O)C2CC(O)CN2C(=O)C(NC(=O)CCCCCCCCCCN2CCCC(Nc3ncc(Cl)c(Nc4ccccc4S(=O)(=O)C(C)C)n3)C2)C(C)(C)C)cc1 (centres unmarked) — log2 fold change (22Rv1; RNA-seq, item: TEX19 mRNA; concentration not given; relative to: DMSO): -6.35
C=CC(=O)N1[C@H](c2ccc3c(c2)OCO3)c2[nH]c3ccccc3c2C[C@@H]1C(=O)NC1CC1 — neuron degeneration (rat DRG neurons; 10 µM, 48 h, together with: vincristine 40 nM): 10.4% and 9.97%

Some of these lines once more:
O=C(C[Se]C(=O)c1cc2ccccc2[nH]1)Nc1cccc(C(F)(F)F)c1 — mean growth percent (NCI60 breast subpanel; cell growth; 10 µM, 48 h, one-dose): -62%
Cc1ccc(-n2cc(CSc3nc4ccccc4n3Cc3cn(-c4ccc(C)cc4)nn3)nn2)cc1 — viability (Caco-2; MTT; 62.5 ppm): 16.1%
